Assay results gathered from unrelated publications.
A part holds a random share of what one study measured.

Sample 1
Target: Replicase polyprotein 1ab, polymerase (rep, Severe acute respiratory syndrome coronavirus 2, UniProt P0DTD1)
Observed: enzyme activity
Action: inhibitor
Tested at: 20 µM
CCCC(=O)N1CCCN(c2nc(N)c3cc(OC)c(OC)cc3n2)CC1 gave an inhibition of 5.67%.
CCN(CC)CCOc1ccccc1C(=O)CCc1ccccc1 gave an inhibition of 4.9%.
CCNCCS(=O)(=O)NC[C@@]1(c2ccccc2)SC(NC(=O)C(C)(C)C)=NN1C(=O)C(C)(C)C gave an inhibition of -3.8%.
With c1ccc(-c2nn3c(c2-c2ccnc4cc(OCCN5CCOCC5)ccc24)CCC3)nc1 the inhibition was -6.45%.
With C[C@@H](O)[C@H]1C(=O)N2C(C(=O)O)=C(S[C@@H]3CN[C@H](C(=O)Nc4cccc(C(=O)O)c4)C3)[C@H](C)[C@H]12 the inhibition was 5.85%.
Cc1cc(C)c(S(=O)(=O)n2cc(C)cc2C)c(C)c1 gave an inhibition of -8.23%.
With CCCNC(=O)Nc1ccc(Oc2ncnc3cc(OC)c(OC)cc23)cc1Cl the inhibition was -3.33%.
COc1ccc(-c2ccc3ncc4c(c3c2)n(-c2ccc(N3CCNCC3)c(C(F)(F)F)c2)c(=O)n4C)cn1 has an inhibition of 27%.
Cc1cccc(Oc2cnc(=O)[nH]c2)c1 has an inhibition of 2.53%.
CCOC(=O)[C@@H](N)Cc1ccc(-c2cc(O[C@H](c3ccc(Cl)cc3-n3ccc(C)n3)C(F)(F)F)nc(N)n2)cc1 gave an inhibition of -0.03%.
The inhibition of Cc1cc(-c2ncc(CC(=O)Nc3ccc(-c4cnccn4)cn3)cc2C)ccn1 is reported as -2.51%.
CC(C)NCC(O)c1ccc(O)c(O)c1 (centres unmarked) gave an inhibition of 19.4%.
For CC(C)=CCc1c(O)cc(O)c2c(=O)c(O)c(-c3ccc(C(F)(F)F)cc3)oc12, the inhibition was -6.06%.
C[C@@H](NCCCc1cccc(C(F)(F)F)c1)c1cccc2ccccc12 has an inhibition of -0.69%.
With CCOC(=O)C(C)Oc1cccc2c(=O)n(CC(=O)Nc3ccc4c(c3)OCCO4)ccc12 (centres unmarked) the inhibition was -3.32%.
The inhibition of O=C1CCc2cc(OCCCCc3nnnn3C3CCCCC3)ccc2N1 is reported as 2.57%.
COc1ccccc1OCC(O)CNC(C)C (centres unmarked) has an inhibition of -0.5%.
O=C/C=C/c1ccccc1 has an inhibition of -2.07%.
C=CC(=O)Nc1cccc(Oc2nc(Nc3ccc(N4CCN(C)CC4)cc3)ncc2Cl)c1 has an inhibition of -1.12%.
CCCN(CCC)CCc1cccc2c1CC(=O)N2 gave an inhibition of -1.89%.
The inhibition of Clc1ccc(C(Cn2ccnc2)OCc2ccc(Sc3ccccc3)cc2)c(Cl)c1 (centres unmarked) is reported as -6.4%.
The inhibition of O=C(CCCN1CC=C(n2c(=O)[nH]c3ccccc32)CC1)c1ccc(F)cc1 is reported as 28.8%.
CC(=O)NC[C@H]1CN(c2ccc(N3CCN(C(=O)CO)CC3)c(F)c2)C(=O)O1 gave an inhibition of -3.53%.
For CC(C)(C)C(=O)C(Oc1ccc(Cl)cc1)n1ccnc1 (centres unmarked), the inhibition was -11.2%.
The inhibition of Cn1cc(/C=C2\C(=O)Nc3cccnc32)c2ccccc21 is reported as 7.42%.

Sample 2
Target: Transcriptional repressor CTCF (CTCF, Homo sapiens, UniProt P49711, residues 1-727, full length assumed)
Method: protein-binding microarray
Form: double-stranded DNA, one strand shown
Sample: in vitro
Tested at: not given
Setting: k-mer, scored over probes, only values ≥0.25
Direction: higher = stronger binding
Residues (chain): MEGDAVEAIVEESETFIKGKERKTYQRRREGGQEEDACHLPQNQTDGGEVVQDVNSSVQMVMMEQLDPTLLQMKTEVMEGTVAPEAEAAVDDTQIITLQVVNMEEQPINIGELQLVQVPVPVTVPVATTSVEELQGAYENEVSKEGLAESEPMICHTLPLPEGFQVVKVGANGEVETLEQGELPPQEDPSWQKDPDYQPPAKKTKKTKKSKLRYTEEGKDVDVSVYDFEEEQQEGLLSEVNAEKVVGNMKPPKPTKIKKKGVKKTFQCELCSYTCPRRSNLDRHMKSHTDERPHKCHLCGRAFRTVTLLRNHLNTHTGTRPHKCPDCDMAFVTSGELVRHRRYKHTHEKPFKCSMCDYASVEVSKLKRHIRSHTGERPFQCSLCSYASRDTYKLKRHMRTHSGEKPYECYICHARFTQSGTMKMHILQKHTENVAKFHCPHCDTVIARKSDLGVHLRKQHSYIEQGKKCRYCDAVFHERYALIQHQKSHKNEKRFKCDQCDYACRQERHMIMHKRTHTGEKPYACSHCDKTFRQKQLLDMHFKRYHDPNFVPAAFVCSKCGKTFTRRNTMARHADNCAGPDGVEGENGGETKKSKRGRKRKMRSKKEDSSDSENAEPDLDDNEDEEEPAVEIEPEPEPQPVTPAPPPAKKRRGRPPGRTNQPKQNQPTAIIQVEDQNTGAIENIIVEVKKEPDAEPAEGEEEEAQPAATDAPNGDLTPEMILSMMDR
`CGCGCCAC` has an E-score of 0.33.
The E-score of `ATTTAAAC` is reported as 0.303.
The E-score of `GCGCCTCC` is reported as 0.254.
`AATATAAC` gave an E-score of 0.305.
For `CTATTTGA`, the E-score was 0.301.

Sample 3
Cell line: HEK-293T
Organism: VSV pseudotyped with SARS-CoV-2 spike
Tested at: 10 µM
Time: 16 h
Clc1ccc(CO/N=C(\Cn2ccnc2)c2ccc(Cl)cc2Cl)c(Cl)c1 gave a pseudovirus infection of 75%.
Oc1ccc(O)cc1 gave a pseudovirus infection of 90.8%.
With CN1CCC[C@H]1c1cccnc1 the pseudovirus infection was 96.5%.

Sample 4
Target: Replicase polyprotein 1ab, main protease (rep, Severe acute respiratory syndrome coronavirus 2, UniProt P0DTD1)
Observed: enzyme activity
Action: inhibitor
Tested at: 20 µM
Setting: hit confirmation, with DTT
With COc1cc(-c2ccc(/N=N/c3ccc4c(S(=O)(=O)O)cc(S(=O)(=O)O)c(N)c4c3O)c(OC)c2)ccc1/N=N/c1ccc2c(S(=O)(=O)O)cc(S(=O)(=O)O)c(N)c2c1O the inhibition was 100%.
C=C1C(=O)[C@]23[C@H](O)[C@H]1CC[C@@H]2[C@@]12CO[C@]3(O)C[C@@H]1C(C)(C)CC[C@@H]2O has an inhibition of 1.8%.
CNS(=O)(=O)C[C@H]1CC[C@H](N(C)c2ncnc3[nH]ccc23)CC1 has an inhibition of 81.2%.
For CO/N=C(\C(=O)N[C@@H]1C(=O)N2C(C(=O)O)=C(CSC(=O)c3ccco3)CS[C@H]12)c1csc(N)n1.Cl, the inhibition was -4.2%.

Sample 5
Target: Ras GTPase-activating protein-binding protein 1, full length (G3BP1, Homo sapiens, UniProt Q13283)
UniProt Q13283, sequence (whole entry, looked up): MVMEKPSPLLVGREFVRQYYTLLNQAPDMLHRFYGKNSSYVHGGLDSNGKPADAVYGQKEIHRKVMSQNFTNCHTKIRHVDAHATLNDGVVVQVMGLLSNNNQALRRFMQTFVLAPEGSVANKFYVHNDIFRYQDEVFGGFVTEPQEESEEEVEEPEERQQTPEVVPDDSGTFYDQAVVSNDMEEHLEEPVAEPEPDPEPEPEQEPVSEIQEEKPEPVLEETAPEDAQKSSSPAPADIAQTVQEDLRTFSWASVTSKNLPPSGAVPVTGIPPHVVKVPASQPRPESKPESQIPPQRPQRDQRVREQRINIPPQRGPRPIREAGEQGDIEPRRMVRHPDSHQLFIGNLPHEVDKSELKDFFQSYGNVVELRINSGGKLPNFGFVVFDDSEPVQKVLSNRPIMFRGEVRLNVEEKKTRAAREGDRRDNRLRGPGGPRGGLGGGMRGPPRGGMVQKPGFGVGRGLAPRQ
Method: RNA Bind-n-Seq
Form: RNA
Sample: in vitro
Tested at: 200 nM
Setting: whole 134-nt RNA, ends assumed
Together with: 150 mM LiCl
Reference: input library
Direction: higher = stronger binding
All molecules: 7-deaza-guanosine replaces G
`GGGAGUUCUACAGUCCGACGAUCUAACUUUAGAGGAGGAUCUGAUGGAUAUGGCAGUGGACGUGGAUUUGGGGAUGACUAUAAUGGGUAUGGAGGAGGACCUGGAGGUGGCAAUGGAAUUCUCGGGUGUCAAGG` gave a log2 enrichment of -0.025.
For `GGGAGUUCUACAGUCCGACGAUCGUCCUGUGCUACACAUCGUAUGUACCGAAUCGGGGCCCCCGGCCCCCGGGGCCCCCGGGAAAGUAUUAUGUUACGCCGUUCGGAUCUGCAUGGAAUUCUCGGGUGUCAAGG`, the log2 enrichment was -2.25.
With `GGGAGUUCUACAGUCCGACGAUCCAAGUCCUGUGCUACACAUCGUAUGUACCGAAUCGGCCCCGGCCCCGGCCCCGGGAAAGUAUUAUGUUACGCCGUUCGGAUCUGCACUUCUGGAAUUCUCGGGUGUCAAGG` the log2 enrichment was -0.181.
With `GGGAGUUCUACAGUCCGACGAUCGUCCUGUGCUACACAUCGUAUGUACCGAAUCAAACCCAAAUUUUUUUAAACCCCCAAAAAAGUAUUAUGUUACGCCGUUCGGAUCUGCACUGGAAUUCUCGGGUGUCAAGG` the log2 enrichment was 1.37.
`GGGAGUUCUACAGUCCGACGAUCUAACUUUAGAGGAGGAUCUGAUGGAUAUGGCAGUGGACGUGGAUUUGGGGAUGGCUAUAAUGGGUAUGGAGGAGGACCUGCAGGUGGCAAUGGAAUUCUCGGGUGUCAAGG` has a log2 enrichment of -0.139.
The log2 enrichment of `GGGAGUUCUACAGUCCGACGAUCAAAAGACAACACGCACCCACACAGACACAGAGGGAAGGGGUUGGGAUGGGGACAGGGUGCACAGCAGGGCGGGGUAGGACCCCAGCCCCUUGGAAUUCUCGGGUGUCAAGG` is reported as 0.247.
`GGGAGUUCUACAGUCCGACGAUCAAGUCCUGUGCUACACAUCGUAUGUACCGAAUCGGGUUUGGGAAAAAGGGUUUGGGAAAGUAUUAUGUUACGCCGUUCGGAUCUGCACUUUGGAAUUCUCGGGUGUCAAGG` gave a log2 enrichment of -1.86.
`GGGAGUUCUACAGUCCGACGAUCUGGCCCUGGUGGCAUGCGGGGAGGAAGAGGUGGCCUCAUGGAUCGUGGUGGUCCCGGUGGAAUGUUCAGAGGUGGCCGUGAUGGAGACAGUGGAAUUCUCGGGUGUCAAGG` has a log2 enrichment of -0.218.

Sample 6
Target: RING finger protein unkempt homolog, zinc fingers 1-6, GST-SBP tag (UNK, Homo sapiens, UniProt Q9C0B0, residues 30-357)
Method: RNA Bind-n-Seq
Form: RNA
Sample: in vitro
Tested at: not given
Setting: RNA with constant flanks, human and mouse sites, ends assumed
Reference: input RNA pool
Direction: higher = stronger binding
Residues (chain): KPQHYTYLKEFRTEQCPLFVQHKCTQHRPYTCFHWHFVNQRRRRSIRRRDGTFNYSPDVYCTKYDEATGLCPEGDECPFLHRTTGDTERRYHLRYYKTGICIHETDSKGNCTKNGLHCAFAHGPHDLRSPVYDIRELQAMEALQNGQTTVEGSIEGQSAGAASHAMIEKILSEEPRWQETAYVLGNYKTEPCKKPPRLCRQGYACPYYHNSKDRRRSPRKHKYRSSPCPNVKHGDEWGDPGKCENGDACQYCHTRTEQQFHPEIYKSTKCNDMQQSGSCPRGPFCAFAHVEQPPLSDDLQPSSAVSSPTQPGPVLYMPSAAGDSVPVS
With `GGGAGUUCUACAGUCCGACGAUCCAGAAACUUUGUGAAAUUGAGAGGAUACAUUUUUUUCUAAGUAAGAAGAAAACCGAUGAACUUAGAAAUCUACACAAACUGCUUUACAACAGGCCAGGCACUGUGUCCUCAUUAAAGAAGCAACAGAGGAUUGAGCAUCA` the bound/input enrichment was 0.161 ratio.
The bound/input enrichment of `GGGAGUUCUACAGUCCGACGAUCUCCAUUGCCACCCUCUUGGUAUGGAUUGUAAUUGGAUUUCUGAAUUUUGAAAUUGUGGAAACCUACUUUCCUGGCUACAAUAGAAGUAUCUCCCGAACAGAAACGAUAAUACGAUUUGCUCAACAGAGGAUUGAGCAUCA` is reported as 0.493 ratio.
`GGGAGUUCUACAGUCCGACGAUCACUGUGCUUCAAGCGGUGUCUGCUUUUGGGGCAGAGUUUUCAUCGGAGGCAUGCAGAGAGUUAGGCUUUUCUAGCAACUUGCUUUGCAGCUCUUGUGAUCUUCUCGGACAGUUCAACCUGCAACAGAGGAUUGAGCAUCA` has a bound/input enrichment of 0.0834 ratio.
`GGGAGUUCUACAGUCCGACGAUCUAAGAUGUAUUCUGUACAUAAUUUACAAAUAAAACAUUUUAUUUUAAUUGUUACUUAUUAUUUAGACAUUUCUCAACACUGAAAUUUGUAAAACAAAAACCAUGUAAGGUAUGUUUUUAGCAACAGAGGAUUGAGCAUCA` gave a bound/input enrichment of 2.87 ratio.
With `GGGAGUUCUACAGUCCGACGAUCACUGCGAGAGGCGGCGGCGGAGGCAGUAGUUGCACCGGCAGAGGCGGCCGCUGGCAGCGGUUGAGGCGGCGGUCCAACGCGUGCUCUCUGGGCGGGGUGCGGCGGGGGAUGUGCCUGCUCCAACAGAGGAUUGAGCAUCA` the bound/input enrichment was 0.0607 ratio.
For `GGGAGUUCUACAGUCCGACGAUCCUGCUCCGCUACCAACCCCGCAGUGAGGAGGAACUGUUUGAUAUUCUCAAUUUGUUGGACAGCUAUCUCAAGAGCAGCAGUACUGGCGUGGUGAUGGGAGCCACCAAACUCUUUCUGAUUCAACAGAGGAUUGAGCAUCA`, the bound/input enrichment was 0.152 ratio.
The bound/input enrichment of `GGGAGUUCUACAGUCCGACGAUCUGGCACUUGUGUAAAACUGUCCCUGCAGAUUGAGCAGGAAGUAAAAACAAAUGGAAAUGCUUCGGAUAGUGGCAGGGGUGGGGGUUGCUAAGGAAAGGGUGGGAUGGGAGUGGGUAAAGACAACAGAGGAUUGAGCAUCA` is reported as 0.638 ratio.
`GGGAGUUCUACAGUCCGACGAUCCAGAUGCUGGUGACCACACCAGAAAAAUGGGAUGUAGUAACAAGAAAGAGUGUUGGGGAUGUUGCUCUUUCCCAAAUCGUAAAACUCCUGAUUCUUGACGAGGUGCACUUGCUGCAUGAACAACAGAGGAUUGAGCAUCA` gave a bound/input enrichment of 0.192 ratio.

For quick reference, copied from above (sample 3):
Clc1ccc(CO/N=C(\Cn2ccnc2)c2ccc(Cl)cc2Cl)c(Cl)c1 gave a pseudovirus infection of 75%.
Oc1ccc(O)cc1 gave a pseudovirus infection of 90.8%.
With CN1CCC[C@H]1c1cccnc1 the pseudovirus infection was 96.5%.
